Experimental data of several laboratories.
Numbered parts are unrelated; each lists some results of a single study. Substitutions count along the parent as printed.

Study 1
Target: Hepatocyte nuclear factor 3-alpha (Foxa1, Mus musculus, UniProt P35582, residues 1-468, full length assumed)
Method: EMSA with sequencing
Form: double-stranded DNA, one strand shown
Sample: in vitro
Tested at: 10 and 20 nM
Setting: whole designed probe, mean of two concentrations, ends assumed
Reference: negative control set to 0
Reading: higher = stronger binding
Shared flanks, not repeated: GTGAGCGGTGCCCATTGATGGGGAAC … TTTCACTGGGATCGTGGGGAC
Residues (chain): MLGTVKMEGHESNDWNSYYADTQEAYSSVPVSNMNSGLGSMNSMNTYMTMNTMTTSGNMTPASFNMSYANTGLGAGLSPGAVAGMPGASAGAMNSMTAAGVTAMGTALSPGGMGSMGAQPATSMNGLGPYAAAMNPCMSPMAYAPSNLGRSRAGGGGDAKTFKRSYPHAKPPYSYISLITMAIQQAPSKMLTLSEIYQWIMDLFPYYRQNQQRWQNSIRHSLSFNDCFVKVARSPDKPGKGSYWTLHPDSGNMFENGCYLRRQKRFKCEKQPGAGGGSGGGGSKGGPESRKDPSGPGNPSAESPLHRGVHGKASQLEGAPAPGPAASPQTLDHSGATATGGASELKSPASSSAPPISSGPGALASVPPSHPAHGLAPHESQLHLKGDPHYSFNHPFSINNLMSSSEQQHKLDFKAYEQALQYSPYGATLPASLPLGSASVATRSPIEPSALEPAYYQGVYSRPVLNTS
Strand	normalised bound fraction
TTGTTACAAATAATGAGAAAACATTTAGTGAAACACTTTAAACGTGTTTTTTTAAAAGAATATTTATTGTCTTATTGCTAAGAAAGAGTTCAGTGTAAACATGTATCAGTTTATCACTTGCTCAGAAGAAATTACTTAAAAATAAATGAGGTTGGTTTAGACGTACTAGTCTATTTTTACTGAAACACAAGCA	0.154 ratio
GAAAAACTGTTAGGCCTCTACCACATGCAAGGAACTGTGCCAAGAATCAAGAGCGATAAAGACTCGTGGGTATTTGCTTGTCTGTGTTTCAAGTGTTTACACAGGGCCTGTATTTCCTGTAAGTCTCCGTCTCAGAACGTGTCAGAGAAGAATGGCTGAATGATATGCAGGAAACGTGCCATATGAACAGAGT	0.403 ratio
ATCTTCCCCCTCTTCCTTGCCCCACCAGCTCACCTTCCCGGGTTGTTTACTTTGAGCAAAGTAAACAAAGCCGGCATTCGTTAACCCTCTTCACGCGCATACTGCTGTTTACTTTGGATGAATCATGGTCCTTTGGCGACGCCAGGCTCCGGGAGAGCAAAGCACCGTGTCAGGGCCATGATCCGGGGTGGCC	0.54 ratio
CAATAAAACATTAAAAGATGCTGTTTCCCTATTTATGAAAGTGCTTTAAGTTTCTTAGTGTTGTGAAGGGATTTTTTTTTTTTTCGGACAAAGTAATCTGGGTTCTCAAGATCCATTTCTAAAATTTTATTTCAAGGAGGAGATGAGAAATGTATGCTTAAAGAAACTGCTGGACACTATTAAAACTGGGATG	-0.0373 ratio
TTTACCTATGTCAAGAATGCATTCTTCTGCCTTTATAGTTCCAGCATCTCTTGAGTCTATATTCTAAATTAATAATGACTGAGCCCCAGTTGCTTGTTTACATTTTATGGGCCTAATTAAATTAGGAAAAATAATCACCTGCAAGCAAAGATGTGATACACTTCCTGTACGACCAAAAAATACTCTCAGGTTA	0.389 ratio

Study 2
Target: Histone acetyltransferase KAT6A, both winged helices, GST fusion (KAT6A, Homo sapiens, UniProt Q92794, residues 1-181)
Method: protein binding microarray
Form: double-stranded DNA, one strand shown
Sample: in vitro
Tested at: not given
Setting: 8-mer, flanks averaged, mean of 2 arrays, mostly near background
Reference: not given
Reading: higher = stronger binding
Construct (chain): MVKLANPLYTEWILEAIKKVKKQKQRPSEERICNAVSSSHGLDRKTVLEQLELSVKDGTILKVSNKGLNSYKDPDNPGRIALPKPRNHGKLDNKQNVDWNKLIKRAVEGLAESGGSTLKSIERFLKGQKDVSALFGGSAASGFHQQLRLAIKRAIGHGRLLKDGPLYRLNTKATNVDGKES
Strand	E-score
AATTCCGG	0.201
CGGTTCGC	0.219
CATGCCCA	-0.16
GATACCGA	0.115
TCAGGAGA	-0.29
GAAAAACC	0.042
AGCACATG	-0.0404
CGAAGAAA	-0.0715
AAGGAATC	-0.00242
ATTCGGAA	0.0686
GAGATAAA	0.00225
AAAGTTGG	-0.292
ACGTCGAC	-0.00415
ACATTACC	0.0568
CTGAAGCA	-0.143
ACGTGAGT	-0.16
AAGTTGTC	-0.0219
AAGGAAAA	-0.11

Study 3
Target: Sal-like protein 4, full length isoform B (SALL4, Homo sapiens, UniProt Q9UJQ4-2, residues 1-616)
Method: universal PBM
Form: double-stranded DNA, one strand shown
Sample: in vitro
Tested at: not given
Setting: 8-mer, flanks averaged, mean of replicates
Reading: higher = stronger binding
Residues (chain): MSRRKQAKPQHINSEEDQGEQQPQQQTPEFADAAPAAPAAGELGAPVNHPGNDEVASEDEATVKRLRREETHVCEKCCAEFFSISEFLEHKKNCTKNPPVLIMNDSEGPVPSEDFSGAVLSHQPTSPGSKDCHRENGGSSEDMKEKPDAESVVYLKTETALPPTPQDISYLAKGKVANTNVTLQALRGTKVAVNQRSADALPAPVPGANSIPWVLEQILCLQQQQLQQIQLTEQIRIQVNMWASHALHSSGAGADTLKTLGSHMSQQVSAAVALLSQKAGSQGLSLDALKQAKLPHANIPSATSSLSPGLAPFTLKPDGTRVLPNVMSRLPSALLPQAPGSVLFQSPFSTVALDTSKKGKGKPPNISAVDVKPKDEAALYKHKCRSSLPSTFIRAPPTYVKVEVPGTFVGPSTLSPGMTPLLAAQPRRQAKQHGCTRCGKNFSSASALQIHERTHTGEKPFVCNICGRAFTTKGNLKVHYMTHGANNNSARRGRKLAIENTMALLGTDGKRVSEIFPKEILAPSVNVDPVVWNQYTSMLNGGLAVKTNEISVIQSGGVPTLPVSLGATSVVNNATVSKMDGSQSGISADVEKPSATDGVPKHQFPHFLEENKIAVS
Strand	E-score
CAGTCGTC	-0.165
AAGCCCTT	-0.0873
CACATTGA	0.213
CGCCGTAC	-0.127
GAACAGCC	-0.27
CTCTATGA	0.0805
CATTCAGA	0.0148
CAGGTGAC	-0.204
AAGAGCTC	-0.313
CGTATAGA	0.205
GTATTGTA	0.235
ACTACATG	0.154
ATCATCGC	0.0886
GAGTGCGC	-0.338
CATACCGA	0.0863
ATTGCTAC	0.232

Study 4
Target: CCND2, cyclin fold, Cln2 fusion (human)
Method: yeast growth competition, sequencing
Sample: yeast
Setting: weak parent motif
Reference: not given
Reading: higher = stronger binding
Starting sequence: ORC1 docking peptide (human); PRARKRLELGNLG; partner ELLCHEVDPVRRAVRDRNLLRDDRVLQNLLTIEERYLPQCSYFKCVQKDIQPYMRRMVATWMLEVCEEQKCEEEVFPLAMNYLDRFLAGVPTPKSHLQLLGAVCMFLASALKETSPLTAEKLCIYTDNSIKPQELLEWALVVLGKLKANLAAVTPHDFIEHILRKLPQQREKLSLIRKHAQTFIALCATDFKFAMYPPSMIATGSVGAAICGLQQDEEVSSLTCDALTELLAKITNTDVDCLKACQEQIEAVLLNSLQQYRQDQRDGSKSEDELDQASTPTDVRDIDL
Change	normalised enrichment score
K5N	0.0251
N11R	0.201
E8N	0.0452
R6P	0.216
R4N	0.301
R2W	0.408
P1I	0.0678
R4Y	-0.00818
L12G	0.0628
E8L	0.0803
L12D	-0.167
K5A L7A	0.197
A3I	-0.0954
P1G	-0.194
K5D	0.238

Study 5
Target: Interferon regulatory factor 5, full length, phosphomimetic (IRF5, Homo sapiens, UniProt Q13568-2, residues 1-514, K96S/S451D/S453D/S456D/S462D)
Method: protein-binding microarray
Form: double-stranded DNA, one strand shown
Sample: in vitro
Tested at: 250 nM
Setting: 60-bp whole probe
With: salmon DNA 0.4 mg/ml
Reference: random background probes
Reading: higher = stronger binding
Shared flanks, not repeated: GCCTAGCAC … GTCTTGATTCGCTTGACGCTGCTG
Strand	log fluorescence
TAAAATTTTGCTTCTAGAACGTGCTAG	0.544 z-score
GGGCTTTCCCAGCCTGGGGCTGTGCTA	-0.541 z-score
GACGGACTGCTCCTGCTGACGTGCTAG	-0.512 z-score
GTAGATCTCAGTTTCGATTAGTGCTAG	9.21 z-score
TACGGACTGGGACTGGGGACGTGCTAG	-0.467 z-score
TTAGAGTTCAGTATCGATTAGTGCTAG	7.23 z-score
TTAGGACTGGGGACTCGGTTAGTGCTA	-0.372 z-score
TCTTTTTGCTTTCTTTTATGGTGCTAG	2.99 z-score
GACGGACTGCCTCTCCTGACGTGCTAG	-0.674 z-score
GACGGACTGCTTCTCCTGAGGTGCTAG	-0.458 z-score
GACGAATTCGGGTATCGAGACGTGCTA	1.02 z-score
TTAGACCTCAGTCTCGATTAGTGCTAG	0.441 z-score
GACGATATCACACTGGAGACGTGCTAG	0.551 z-score

Study 6
Target: Phosphate system positive regulatory protein PHO4, full length, GST-tagged (PHO4, Saccharomyces cerevisiae, UniProt P07270, residues 1-312)
Method: competition protein-binding microarray
Form: double-stranded DNA, one strand shown
Sample: in vitro
Tested at: 2 µM
Setting: whole 60-bp probe, lowest competitor level
With: Cbf1 competitor, 0.05 µM
Reading: higher = stronger binding
Shared flanks, not repeated: … GTCTTGATTCGCTTGACGCTGCTG
Residues (chain): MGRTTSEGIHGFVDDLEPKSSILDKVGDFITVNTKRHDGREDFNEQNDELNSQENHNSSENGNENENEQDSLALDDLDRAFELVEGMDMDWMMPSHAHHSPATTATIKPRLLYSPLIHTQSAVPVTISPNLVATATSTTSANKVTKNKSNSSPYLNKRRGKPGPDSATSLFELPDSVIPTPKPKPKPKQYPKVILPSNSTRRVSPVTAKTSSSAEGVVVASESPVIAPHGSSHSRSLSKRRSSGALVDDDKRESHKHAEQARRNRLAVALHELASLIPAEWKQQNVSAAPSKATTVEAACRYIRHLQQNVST
Strand	fluorescence intensity
TTAATCAATGATTTACCCGTGGGACCCAAGTCCAGT	7600 a.u.
GTTATTTAAAGCTTCCACGTGCAAAATTTTAGGCAA	17300 a.u.
CTTCCAAATGATGTTTTCGTGCGATAACTTAAGTAT	4770 a.u.
CGGGGTTAAGTTTTTCACGTGCGATGCTTGCAGCAG	12600 a.u.
TGCGCAACAACTTGTCACCCAACTTTATGTCTAGAA	3510 a.u.
TATATTTCTTTCCATCACGTGCTTTAAAAATAATTA	20200 a.u.
ATGAGATACTTGAAACACGTTTCAAGAAGATTCAAG	11000 a.u.
GGGTGCCGGTACTTCCACGGGCCTCCAGTCCAGGAC	5750 a.u.
GGACGAGAAATACACAGATTCAGTAAGATTTGTGAG	3980 a.u.
AAAGCGGTAATTTGTCACATCACTTCACATATCTAT	3700 a.u.
AAAGCGGTAATTTTTCACGTGGAATCAAATATCTAT	12900 a.u.
CATACCCAACCTTGTCACATGACTTAAGATATTTGT	7430 a.u.
ATGAAGTGAAATCGGCACGTGGAGGTCAGAAGAGTC	19400 a.u.

For quick reference, copied from above (study 5):
Strand	log fluorescence
GACGGACTGCTCCTGCTGACGTGCTAG	-0.512 z-score
GTAGATCTCAGTTTCGATTAGTGCTAG	9.21 z-score
TACGGACTGGGACTGGGGACGTGCTAG	-0.467 z-score
TTAGAGTTCAGTATCGATTAGTGCTAG	7.23 z-score
TTAGGACTGGGGACTCGGTTAGTGCTA	-0.372 z-score
TCTTTTTGCTTTCTTTTATGGTGCTAG	2.99 z-score
GACGGACTGCCTCTCCTGACGTGCTAG	-0.674 z-score
GACGGACTGCTTCTCCTGAGGTGCTAG	-0.458 z-score
GACGAATTCGGGTATCGAGACGTGCTA	1.02 z-score
TTAGACCTCAGTCTCGATTAGTGCTAG	0.441 z-score
